Results gathered from unrelated publications.
Numbered parts are unrelated; each lists some results of a single study.

Block 1 — method: aptamer microarray, sandwich; form: DNA with 2'F-ANA; matrix: in vitro; concentration: 200 nM; together with: Cy3 exosite-II aptamer, 400 nM; reading: higher = stronger binding; sequence: GGTTGGTGTGGTTGG
Target: Prothrombin, mature alpha-thrombin (F2, Homo sapiens, UniProt P00734)
Notes: whole 15-mer aptamer, many near background
Modification	mean fluorescence intensity [a.u.]
2'F-ANA at 3 4 7 9 11 13	581
2'F-ANA at 4 14 15	163
2'F-ANA at 2 3 4 5 7 10 13 15	47.6
2'F-ANA at 2 12	895
2'F-ANA at 2 4 10 11 12 13 15	106
2'F-ANA at 2 4 5 8 9 12 13 15	87.3
2'F-ANA at 2 3 5 6 7 9 13 14	88.3
2'F-ANA at 2 6 9 11 13 14	98.3
2'F-ANA at 3 4 5 6 9 12 15	207
2'F-ANA at 1 3 4 5 6 8 10 11 14	50.4
2'F-ANA at 1 2 4 5 7 9 11 12 13 14	73.1
2'F-ANA at 2 5 6 10 12 15	49.5
2'F-ANA at 1 2 4 6 8 9 10 13 14 15	49.8
2'F-ANA at 2 10 11 12 13 15	153
2'F-ANA at 1 3 5 6 8 11 12 13	85.4
2'F-ANA at 4 5 6 8 9 11 14 15	69
2'F-ANA at 1 6 7 10 11 12 13 15	67.9
2'F-ANA at 4 5 6 7 9 10 13 14	46.5
2'F-ANA at 2 5 6 7 13 15	51.1
2'F-ANA at 1 2 3 5 6 7 9 11 12 14 15	54.2
2'F-ANA at 3 4 8 10 11 12 15	274

Block 2 — method: universal PBM; form: double-stranded DNA, one strand shown; matrix: in vitro; concentration: not given; reading: higher = stronger binding
Target: Sal-like protein 4, full length isoform B (SALL4, Homo sapiens, UniProt Q9UJQ4-2, residues 1-616)
Notes: 8-mer, flanks averaged, mean of replicates
Residues (chain): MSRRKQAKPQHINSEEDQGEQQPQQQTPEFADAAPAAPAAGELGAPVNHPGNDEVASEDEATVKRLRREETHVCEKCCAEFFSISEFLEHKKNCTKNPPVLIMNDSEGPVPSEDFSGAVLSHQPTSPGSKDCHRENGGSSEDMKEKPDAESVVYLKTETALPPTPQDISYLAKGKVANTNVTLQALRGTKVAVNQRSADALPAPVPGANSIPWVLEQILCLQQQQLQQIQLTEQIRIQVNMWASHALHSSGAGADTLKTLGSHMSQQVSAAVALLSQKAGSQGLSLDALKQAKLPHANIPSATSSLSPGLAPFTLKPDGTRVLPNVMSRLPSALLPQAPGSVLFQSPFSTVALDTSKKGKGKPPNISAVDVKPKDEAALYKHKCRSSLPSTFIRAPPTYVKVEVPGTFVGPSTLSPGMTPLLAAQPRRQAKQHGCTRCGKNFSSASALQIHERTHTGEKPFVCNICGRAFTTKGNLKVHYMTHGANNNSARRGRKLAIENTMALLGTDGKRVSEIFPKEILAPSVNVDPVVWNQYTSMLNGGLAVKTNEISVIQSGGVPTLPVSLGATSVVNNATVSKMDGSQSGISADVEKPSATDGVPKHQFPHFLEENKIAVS
Sequence	E-score
CAGACACC	-0.0872
GACATTTA	0.183
ATCTGGAA	0.0876
CCAATACA	0.236
GCTCTTCA	-0.209
AGCCTCGA	-0.214
TAGTGAAA	0.176
CCAACGGA	-0.239
TAAAGGGA	0.124
GCCCTGAA	-0.133
ATCATCAT	0.295
AATCACGC	-0.036
GGTGCATA	0.0442
TAAGTCTA	0.058
ATCCCTGG	-0.179
GATTAACA	0.207
TCCCTCGA	-0.209
AGGATTGA	0.152
AGTTCGGG	-0.0496
ACGGGATA	-0.0235
CGCTGAGC	-0.22
TAGTGCAA	0.236
ATGGCGCA	-0.074

Block 3 — method: protein-binding microarray; form: double-stranded DNA, one strand shown; matrix: in vitro; concentration: 250 nM; notes: 60-bp whole probe; together with: salmon DNA 0.4 mg/ml; reference: random background probes; reading: higher = stronger binding; constant ends, left off below: GCCTAGCAC … GTCTTGATTCGCTTGACGCTGCTG
Target: Interferon regulatory factor 7, full length, phosphomimetic (IRF7, Homo sapiens, UniProt Q92985, residues 1-503, S101K/S471D/S472D/S475D/S476D/S477D/S483D/S484D/S487D)
Sequence of UniProt Q92985 (whole entry, unmodified, looked up): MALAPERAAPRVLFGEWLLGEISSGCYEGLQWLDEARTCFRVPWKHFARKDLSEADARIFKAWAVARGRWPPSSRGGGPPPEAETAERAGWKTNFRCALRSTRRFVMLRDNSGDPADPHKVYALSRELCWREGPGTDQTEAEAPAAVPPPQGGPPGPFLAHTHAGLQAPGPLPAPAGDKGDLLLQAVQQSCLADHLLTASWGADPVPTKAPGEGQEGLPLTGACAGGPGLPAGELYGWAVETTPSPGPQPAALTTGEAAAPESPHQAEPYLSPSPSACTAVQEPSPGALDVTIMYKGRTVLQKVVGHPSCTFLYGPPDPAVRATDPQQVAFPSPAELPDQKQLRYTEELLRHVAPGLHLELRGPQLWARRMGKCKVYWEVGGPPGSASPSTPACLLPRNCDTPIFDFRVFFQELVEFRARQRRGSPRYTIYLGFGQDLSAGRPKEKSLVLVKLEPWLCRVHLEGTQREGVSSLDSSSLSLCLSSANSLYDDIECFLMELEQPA
Sequence	log fluorescence [z-score]
TCATCTTGCAGTATGGAACTGTGCTAG	0.0999
GACGATATCGGGTATCGCGACGTGCTA	-0.253
TTAAGTTTCCTACTGCTTTAGTGCTAG	1.72
TCACCTTTCTCTTGGAGACTGTGCTAG	1.06
TTCCAGCTGGTGACTAGCGAGTGCTAG	-0.267
AACGGTATCGACTTTCGGGACGTGCTA	1.5
GACGATTTCAGATTCGAGACGTGCTAG	1.43
TAAGGTTTCGGTATCGGTTAGTGCTAG	11.3
TCATGGTTCTTGCTTGGTACTGTGCTA	-0.17
GAACATTTCAATTAGAAAAAGTGCTAG	0.58
TTAGATTTCGGGACTGGACTAGTGCTA	-0.119
GACCGTATCGACTTTCGGGACGTGCTA	1.19
TCATAATTCTGATTGGAACTGTGCTAG	0.314
AGCACTCTTCTTTTTTTTCTGTGCTAG	0.296
GAAGGTTTCGGTCTCGGGACGTGCTAG	7.4
TTAGGTAGCGACTATCGGTTAGTGCTA	-0.672

Block 4 — method: protein binding microarray; form: double-stranded DNA, one strand shown; matrix: in vitro; concentration: not given; reference: not given; reading: higher = stronger binding
Target: Histone acetyltransferase KAT6A, both winged helices, GST fusion (KAT6A, Homo sapiens, UniProt Q92794, residues 1-181)
Notes: 8-mer, flanks averaged, mean of 2 arrays, mostly near background
Construct (chain): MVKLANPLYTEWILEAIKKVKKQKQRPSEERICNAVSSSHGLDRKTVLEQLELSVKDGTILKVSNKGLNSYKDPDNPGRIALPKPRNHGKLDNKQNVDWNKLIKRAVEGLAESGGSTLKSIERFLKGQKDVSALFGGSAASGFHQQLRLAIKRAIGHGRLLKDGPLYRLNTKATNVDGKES
Sequence	E-score
AGTTATTG	-0.02
AGGGGATA	-0.241
CAGCGGTA	0.201
AGAGCATA	-0.128
AAATAACG	0.034
ACCATCAC	-0.0717
CTGTAAAG	-0.0604
ATTCCTTA	-0.179
AATTACAT	-0.0186
ATAGGAGG	-0.0665
ATCGTACG	0.103
CCATAACC	-0.214
CTTGACAC	-0.0106
ATGCAGTA	-0.104
AACATTTC	-0.112
ATGCAAGC	0.0206
GGTCCTAA	-0.0459
AGGTAATA	-0.0753
ACACGTCA	-0.072
ACTCCAGG	-0.059
ACATCTGA	-0.0378
CGAACGTC	0.0174
CCAAGGTA	-0.103
CAGCAACG	0.0123
ATATAATG	-0.134

Block 5 — method: EMSA with sequencing; form: double-stranded DNA, one strand shown; matrix: in vitro; concentration: 10 and 20 nM; reference: negative control set to 0; reading: higher = stronger binding
Target: Hepatocyte nuclear factor 3-alpha (Foxa1, Mus musculus, UniProt P35582, residues 1-468, full length assumed)
Sequence of UniProt P35582 (whole entry, looked up): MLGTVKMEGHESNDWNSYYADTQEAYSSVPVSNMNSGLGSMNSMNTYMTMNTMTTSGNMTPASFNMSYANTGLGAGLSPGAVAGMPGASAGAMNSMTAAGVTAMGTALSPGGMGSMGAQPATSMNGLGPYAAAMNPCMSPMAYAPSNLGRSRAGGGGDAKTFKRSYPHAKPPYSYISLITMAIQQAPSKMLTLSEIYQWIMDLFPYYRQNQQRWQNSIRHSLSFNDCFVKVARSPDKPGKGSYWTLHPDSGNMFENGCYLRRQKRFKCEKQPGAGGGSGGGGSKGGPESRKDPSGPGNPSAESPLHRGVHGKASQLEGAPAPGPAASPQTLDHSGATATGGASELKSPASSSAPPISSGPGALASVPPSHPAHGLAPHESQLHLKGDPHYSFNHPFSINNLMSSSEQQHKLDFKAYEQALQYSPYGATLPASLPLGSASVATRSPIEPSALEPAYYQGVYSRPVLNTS
Notes: whole designed probe, mean of two concentrations, ends assumed
Constant ends, left off below: GTGAGCGGTGCCCATTGATGGGGAAC … TTTCACTGGGATCGTGGGGAC
Sequence	normalised bound fraction [ratio]
CACTAGCCAAGCAAATGCTACCTTTCCTAAATTACGCCGTGGTATTGTGTACGACAGCAGCAGGGTTGCTATTTTAAAATGGGATTGCGTAAAATAAACATGTGCCCAGATGCTAAGTTGACAGGAAGTAATGATTAATTGATGCTCTGGTACGGCCTCGTGCTTTCCAGTGCTTCCATTTGTGTGACGATCC	0.246
CTTCAAAGTAGCTCCCATATGGACTGAATATAGGATACGAGCCTCTGCCTAGCCTTCAGTCCTTTTTGTTTGGTTTAGGTGTTGGTTGTCTTTGTAAACACTGGAAGCTGCTGAGTCATCTCCCTCGGCTTTTTCCATCACACTTTACCCCACATACATTCATACACACTTGGCTCAAGCTTTTCGGTTCTTT	0.345
ACACTTCTTCCATTTCCTCAACTCCTAAACATTCATTTATTCATTCTTCATCACACAAAAATCTGAATCTGGCTTCTGCCCCCTACCCTCCTTATTTACTTTCTCAAATAGTATACATATAGTCTTTAAACAAACATACATACATGCATATTTTCAAGATTATCAAGCAATTCCTGTTTCAACTTTTCTTAAA	0.436
TCATGAGATTGAAATTACTTTTGTTAAGTGTAATCTCTTCACAAAAGTGTTGAGATTACTTTTGTTAAGTGTAATCTCTTCACAAAAGTGTTGAGATTACTTTTGTTAAGTGTAATCTCTTCACAAAAGTGTTGAGATTACTTTTAAGTGTAATCTCTTCTTTTGTAATACTCTTTTGTAGTATTTTTCAACT	0.0251
AATTTCCTGTGCTCTCTTTCCTGCCCTCATTCAAGTGGTCACCTTCCTTATTTCCCTCAGAAATACTCACAGAAGCTGTCAGAAGGGTTATGAGTCAACACTCACGTGCTTGAACCCACATGTCTATCAGCCAACCTTGGTGTGGCTGGACCTCACATTCTGTTTGCCCTTCTGTGATGGATGAACTTGTGTT	0.0712
CCTGAAGGCAGCTGGGGTCAGGGAACAAGGCAACTGAATATCCTCCATCAGGAAATCCTAAGAGAATAAAAAGACCAGTCTTGTAACATAAATATAATCTTCTAATCAAATTAGCCAATTAGAAAAACATTTTTAAGAAAAGGCAATCTTTTACCAATTTGTCCTATGTATCTTTTGCATTTTTTCTCCCTAA	-0.0168
CAACCAAGCAGTATTAGAGCAATTTAGCAAATTCCTCAGTTGAGAGTTAATCTTGCAAACATCCTGCTGTAGGGAAAGGTCATGGCCTGATCTGTAATCTCGGGAAGAGAGCCATTGGACTTGGGAATCAGATGCAGCCTCACACGGCTGCAGACCGCAAGACTCATCCTAGACACAGCTTATGTCACTGTGA	-0.0519
TGGCAGAGCCAAGTTTACCAGTGTGTTGGCAGGAGTTACTGTTCCTTCTTGTGTGATTTCTTTGAGGACATTGCACTGTTTATACAGAGAGTGTAAACATAGCTGTTGATTTAACTAAACACTGTTTTTTGTTCCCCGTCTCTCACAGCCATGGTAAATAGCCTAATATTTAAGCTCAGAGGCTTTGATGTGA	0.379

Block 6 — method: RNAcompete; form: RNA; matrix: in vitro; concentration: 20 nM; notes: 7-mer, probes averaged, single round; reference: mean of 7-mers; reading: higher = stronger binding
Target: PABPC1L2, full length, GST fusion (mouse, UniProt A0ABA7IW68)
Target sequence (chain): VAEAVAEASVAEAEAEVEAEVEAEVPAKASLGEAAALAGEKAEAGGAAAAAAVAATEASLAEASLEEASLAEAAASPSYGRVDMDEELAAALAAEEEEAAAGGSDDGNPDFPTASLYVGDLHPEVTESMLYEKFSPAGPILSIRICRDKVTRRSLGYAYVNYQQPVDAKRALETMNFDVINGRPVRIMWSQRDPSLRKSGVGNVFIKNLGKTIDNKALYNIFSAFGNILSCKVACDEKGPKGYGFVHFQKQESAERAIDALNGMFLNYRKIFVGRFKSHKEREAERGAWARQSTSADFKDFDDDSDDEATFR
Sequence	7-mer Z-score
AUACGAC	-0.0518
GAGUGGU	-0.215
AUGCAUG	-0.141
ACCCUUA	-0.146
AAUGUUC	-0.213
AUAUUUG	-0.302
UACUUCU	-0.347
UGUGGGU	-0.0482
GGUUAGA	0.102
CAGUGAG	-0.101
UACAUCG	-0.0736
UGUCGAG	-0.162
UACUCCA	-0.121
UUCUAUA	-0.202
GCGCUAA	0.0859
UGCCCUU	-0.369
AGAGAUG	0.0116
GCAAAGA	0.608
AUGCGGG	0.178
AAAAGCA	4.58
GCAUAGU	-0.258
ACAUUGG	0.0533
CCCAGCG	-0.197
GGCUCUA	0.207
ACGCACC	-0.0264

Excerpt of the above (block 2):
Sequence	E-score
CCAACGGA	-0.239
ATCCCTGG	-0.179
TAAGTCTA	0.058
TAGTGAAA	0.176
ATGGCGCA	-0.074
CAGACACC	-0.0872
CGCTGAGC	-0.22
AGTTCGGG	-0.0496
AGGATTGA	0.152
GCCCTGAA	-0.133
CCAATACA	0.236
TAAAGGGA	0.124
AGCCTCGA	-0.214
GATTAACA	0.207
ACGGGATA	-0.0235
